Experimental data pooled from the literature.
Medium: plasma

The Vd/F of `Cn1cc(-c2cnc3cnn(S(=O)(=O)c4cnc5ccc(-c6cnn(C)c6)cn45)c3c2)cn1` is reported as 462 L (male human; oral, 300 mg, single dose, fasted, healthy volunteers).
The Vd/F of `O=C(c1cccnc1-c1ccncc1)N1CCC(O)(Cc2ccccc2)CC1` is reported as 1360 L (human; oral, 300 mg, healthy volunteers).
`CCOc1ccc(Cc2cc([C@@H]3S[C@H](CO)[C@@H](O)[C@H](O)[C@H]3O)c(OC)cc2C)cc1` gave a Vd/F of 39.3 L (human; oral, 5 mg/day, multiple doses).
`COc1cccc(-c2ccc(NC(=O)C3=C(C(=O)O)CCC3)c(F)c2)c1` has a Vd/F of 12.5 L (male human; oral, 40 mg, single dose, fasted, healthy volunteers).
`Cc1ccsc1C(=O)Nc1cc(CN2CCN(C(=O)CO)CC2)ccc1/C=C/c1n[nH]c2ccccc12` has a Vd/F of 19.7 L (human; oral, 50 mg/day, patients).
`CCCC[C@H](NC(C)=O)C(=O)N[C@H]1CCC(=O)NC[C@@H](C(=O)N[C@@H](Cc2c[nH]c3ccccc23)C(N)=O)NC(=O)[C@H](CCCNC(=N)N)NC(=O)[C@@H](Cc2ccccc2)NC(=O)[C@H](Cc2c[nH]cn2)NC1=O` gave a Vd/F of 171 L (human; subcutaneous, 1 mg, single dose, healthy volunteers).
With `O=C(c1nc2n(n1)[C@H](c1ccccc1)C[C@@H]2F)C1CC1` the Vd/F was 92.3 L (human; oral, 75 mg, single dose, fasted, healthy volunteers).
`CCOc1ccc(Cc2cc([C@]34OC[C@](CO)(O3)[C@@H](O)[C@H](O)[C@H]4O)ccc2Cl)cc1` has a Vd/F of 240 L (human; oral, 15 mg, single dose).

A few entries again:
With `O=C(c1nc2n(n1)[C@H](c1ccccc1)C[C@@H]2F)C1CC1` the Vd/F was 92.3 L (human; oral, 75 mg, single dose, fasted, healthy volunteers).
